Assay results collected from several papers.
Numbered parts are unrelated; each lists some results of a single study. Positions count from the first letter of the parent shown.

Set 1
Target: CCNF, cyclin fold, Cln2 fusion (human)
Method: yeast growth competition, sequencing
Matrix: yeast
Notes: strong parent motif
Reference: not given
Reading: higher = stronger binding
Starting sequence: TICRR docking peptide (human); TKVRRNLFNQELL
Change | normalised enrichment score
TKVRRALFNQELL [N6A] | 7.53
TKVRRNLFNQELA [L13A] | 7.24
TKVRRNLANQELL [F8A] | 0.526
TKVRANLFNQELL [R5A] | 0.91
TKVRANAFNQELL [R5A L7A] | 0.0589
TKVRKNLLNQELL [R5K F8L] | 0.788
TKVRRNLLNQELL [F8L] | 1.34
TKVRRNLFNQALL [E11A] | 5.54
TKVRRNLFNAELL [Q10A] | 5.59
AKVRRNLFNQELL [T1A] | 7.04

Set 2
Target: Histone acetyltransferase KAT6A, winged helix 1, GST fusion (KAT6A, Homo sapiens, UniProt Q92794, residues 1-85)
Method: protein binding microarray
Form: double-stranded DNA, one strand shown
Matrix: in vitro
Concentration: not given
Notes: 8-mer, flanks averaged, mean of 2 arrays, mostly near background
Reference: not given
Reading: higher = stronger binding
Construct (chain): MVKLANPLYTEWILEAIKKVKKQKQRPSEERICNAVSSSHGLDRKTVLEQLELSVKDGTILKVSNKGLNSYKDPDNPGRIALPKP
Sequence | E-score
CTATATTC | -0.172
GTTGAAGA | -0.11
ACTTCGGG | -0.0346
ATAAGTAA | -0.202
ATGTCTAA | -0.276
CAGACACG | 0.142
TACTACTA | 0.149
GCGCATTA | 0.213
AAAGTTTG | -0.153
CGGTCTCA | 0.0189
AAGCCTTG | -0.0691
ATGCGGCG | 0.413
AAATGCCT | -0.242
CTCTTTAA | -0.146
TATCTGGA | -0.255
AACTAATG | -0.178
AGGTTTTA | -0.0377
AAACTTGT | -0.119
CGCAACTC | 0.164
ACCGTTGG | -0.0772
CCACTGTA | -0.148
ACACCAGG | -0.192
CGTGGCAA | -0.0366

Set 3
Target: CEBPB, bZIP domain (human)
Method: DHFR protein complementation
Matrix: yeast
Notes: single substitutions, most at no-binding floor
Reference: wild-type JUN-FOS pair
Reading: higher = stronger binding
Starting sequence: JUN, bZIP domain (human); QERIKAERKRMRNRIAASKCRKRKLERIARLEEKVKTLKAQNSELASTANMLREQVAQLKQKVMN; partner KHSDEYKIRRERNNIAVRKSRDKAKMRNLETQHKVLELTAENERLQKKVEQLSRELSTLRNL
Change | binding fitness
K36G | -1.42 natural log
L31I | -1.25 natural log
L31K | -1.24 natural log
E44L | -1.39 natural log
T37R | -1.38 natural log
S43I | -1.31 natural log
Q58R | -1.37 natural log
I28G | -1.19 natural log
R53H | -1.35 natural log
L38G | -1.41 natural log
S47V | -1.21 natural log
E32V | -1.4 natural log
V35C | -1.44 natural log
R53Q | -1.01 natural log
A46P | -1.48 natural log
L31H | -1.18 natural log
A46H | -1.2 natural log
R30Q | -1.05 natural log
K34T | -1.37 natural log
E54P | -1.47 natural log
S43C | -1.22 natural log
V56E | -1.45 natural log
E44W | -1.51 natural log
L45K | -1.44 natural log

Set 4
Target: ABI1, truncated, D143A, DHFR fusion (Arabidopsis thaliana)
Method: DHFR PCA, deep sequencing
Matrix: yeast
Notes: methotrexate growth selection, single substitutions
Together with: (+)-ABA 4.8 µM
Reference: wild-type fitted maximum
Reading: higher = stronger binding
Starting sequence: PYL1, truncated, DHFR fusion (Arabidopsis thaliana); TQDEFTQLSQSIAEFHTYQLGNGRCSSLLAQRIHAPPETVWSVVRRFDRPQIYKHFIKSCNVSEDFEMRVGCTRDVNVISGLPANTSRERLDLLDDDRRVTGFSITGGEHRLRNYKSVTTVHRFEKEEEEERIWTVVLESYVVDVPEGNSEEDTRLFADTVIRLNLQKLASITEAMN; partner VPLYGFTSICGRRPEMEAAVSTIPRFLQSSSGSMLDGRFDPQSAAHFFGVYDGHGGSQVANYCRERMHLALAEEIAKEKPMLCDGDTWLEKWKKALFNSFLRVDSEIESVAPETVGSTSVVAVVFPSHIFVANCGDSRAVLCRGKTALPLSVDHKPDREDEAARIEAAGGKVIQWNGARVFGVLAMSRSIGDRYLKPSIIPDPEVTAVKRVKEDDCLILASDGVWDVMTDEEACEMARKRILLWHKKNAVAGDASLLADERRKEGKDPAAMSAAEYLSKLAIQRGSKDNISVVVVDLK
Change | relative binding score [%]
E129I | 56.9
E131K | 84.9
S59W | 17.5
G102N | -2.88
S171P | 11.5
N114K | 6.6
G81C | 2.02
L8C | 51.5
G71I | -6.79
R132S | 97.2
T135N | -26
F5H | 60
I162L | 5.33
G102Y | 4.22
Q7P | 52.7
E151W | 34
D65R | 56.3
I79K | 47.5
S63G | 78.5
V40G | -8.82
D97A | 80.6
S11I | 62.9
E38R | 6.23
F157N | 0.846
R132A | 91.4

Set 5
Target: RNA binding protein fox-1 homolog 2, RRM domain, GST-SBP tag (RBFOX2, Homo sapiens, UniProt O43251-10, residues 100-194)
Method: RNA Bind-n-Seq
Form: RNA
Matrix: in vitro
Concentration: 365 nM
Notes: natural RNA segment, single round, ends assumed
Reference: no-protein control
Reading: higher = stronger binding
Construct (chain): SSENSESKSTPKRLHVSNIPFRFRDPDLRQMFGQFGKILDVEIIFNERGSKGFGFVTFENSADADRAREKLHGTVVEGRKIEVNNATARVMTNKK
Sequence | RBNS enrichment (R)
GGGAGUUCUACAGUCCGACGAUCUAUUGAAGAUUUAAAGACAGUGGCACACACACUUGAACAAAAGCAAGCCCUCAGUGUUUCCAGCCAUUUGAACCUGGACAGAUGCAGCUGGGGAGGGCCAGAGGAAGUGGUGGAAUUCUCGGGUGCCAA | 0.396
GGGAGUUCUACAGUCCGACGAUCGGGGCAGCCUGCUGUCCCUCCCACCUGCACAGUGAUGCUGUCUGGUGGGGCCUCGUGGUGCCUAGGAGAUGAAGAUGAGGUUUUCCUUACCGUGUAAAUGAAUAUUUGUAUGGAAUUCUCGGGUGCCAA | 0.238
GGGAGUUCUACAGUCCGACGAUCUUUAGUGGUGAAUACCAAGAUUCAGUGCAUCCUUUAAAAGAGCGUUCUUGUCCCUGGCGCUGGCUAAAAAUAGCUCGUUUCCAGAUGCUUUUGUAGAUGACUGAAGUAUUUGGAAUUCUCGGGUGCCAA | 0.579
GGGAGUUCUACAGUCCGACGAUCGAAAUUCCUCUUUAAAUGAACAAGUAACCACAUCUCAGGCGGCAGUGAAGUCCAGAUAGUUUUGCAGAUUGUUUUGCUACUUUUUCAUAUGGUAUAUGUUUCUGAUUUUUUGGAAUUCUCGGGUGCCAA | 0.58
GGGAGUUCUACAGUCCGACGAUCUGUGUACACUAAUGCUGUACUAGAUUCCCACAGAACAUCUAGCAAACAAAACUGAUACAAUCUGCUGCCUAUUGUUUGAGGACCCACUGAGUAAUGUUUGUGGCUAUUAAUGGAAUUCUCGGGUGCCAA | 0.492
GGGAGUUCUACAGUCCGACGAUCUUGCACAUGAACUGUCACAUGUUUAAAAAUGUGUUUUUUAGAGAGCCUCAGUCUUACUGAUUUCAAACACUUUUUUCUUCUGUGUAUUGCUUUUAAGAGAGCCAUCAGUUUGGAAUUCUCGGGUGCCAA | 0.378
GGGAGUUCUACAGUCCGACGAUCCCAGGCAACUGGCUGUCUUUGGGAGGGGUGGCUCUUAAGACUCUACCUCUGAUUGCAUCACUAGGACUAACUACAAGCUGGCUGGGGAUACUCCCUUGUGUGUUCUGUCCUGGAAUUCUCGGGUGCCAA | 2.43
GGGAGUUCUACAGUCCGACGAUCGAGGGGUUCUAAUGGAAUGGAUGGGGAUGUCCACACACGCAUUCAGAUGGCUGUACAACAGGUUGUAGGGCUGGUAGUAUGAGGUGCUUGGGAAGUUUUGUUGGGUCAAGUGGAAUUCUCGGGUGCCAA | 1.79
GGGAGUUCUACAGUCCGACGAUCCUGACAUUUAGUUGAUUAUUUUCUGCUACAGACCUGGUACACUCUGAUUUUAGAUAAAGUAAGCCUAGGUGUUGUCAGCAGGCAGGCUGGGGAGGCCAGUGUUGUGGGCUUGGAAUUCUCGGGUGCCAA | 0.533
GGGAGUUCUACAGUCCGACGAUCAAUUCUUCUCAGAAACUGGAAGACAUUCCUCUGUGUUUGCCCCUUCCUGACCCAAGAGACACCCUAUACAUGAGGGCCCAGCUCUUUACCUCUGGGGACAGCUGGCAUGCUGGAAUUCUCGGGUGCCAA | 0.512
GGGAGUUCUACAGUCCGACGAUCUCUGUAUAUAUAGAGACCACAGAGUUAGGAUUUUUUUUAAUGAGAAAAAUACUGUAUUUAAAAUGUAAAAUAAACUUUUAAAAAGCAAGCACUAAUAUAUAUUUCUUUCAUGGAAUUCUCGGGUGCCAA | 1.32
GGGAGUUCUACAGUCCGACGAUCCAUUCUUCAGUGCCUCAUGACUGAAAACAAAAAACAAAAAAACGAAAGCAUCUUCACAAUGAAGCUUCCAGAUAGCACCGUUUUGCUAAAAGAUACAUUCUCAUUGUUUUUGGAAUUCUCGGGUGCCAA | 0.312

Set 6
Target: Interferon regulatory factor 7, full length, phosphomimetic (IRF7, Homo sapiens, UniProt Q92985, residues 1-503, S471D/S472D/S475D/S476D/S477D/S483D/S484D/S487D)
UniProt Q92985, sequence (whole entry, unmodified, looked up): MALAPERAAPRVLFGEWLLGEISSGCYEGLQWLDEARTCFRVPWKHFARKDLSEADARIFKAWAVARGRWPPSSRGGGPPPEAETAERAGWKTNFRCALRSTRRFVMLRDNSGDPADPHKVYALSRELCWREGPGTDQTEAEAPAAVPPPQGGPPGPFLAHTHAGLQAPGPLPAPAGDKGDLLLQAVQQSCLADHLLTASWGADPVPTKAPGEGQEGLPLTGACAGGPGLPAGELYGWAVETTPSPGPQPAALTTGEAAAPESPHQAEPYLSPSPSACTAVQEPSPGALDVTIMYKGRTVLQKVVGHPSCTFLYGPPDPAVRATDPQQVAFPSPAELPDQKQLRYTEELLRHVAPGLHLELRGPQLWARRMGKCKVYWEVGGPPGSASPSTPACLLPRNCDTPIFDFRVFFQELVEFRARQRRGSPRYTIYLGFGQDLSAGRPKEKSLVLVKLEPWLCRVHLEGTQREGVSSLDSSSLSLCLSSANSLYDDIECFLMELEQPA
Method: protein-binding microarray
Form: double-stranded DNA, one strand shown
Matrix: in vitro
Concentration: 2200 nM top
Notes: 60-bp whole probe
Together with: salmon DNA 0.4 mg/ml
Reference: random background probes
Reading: higher = stronger binding
All sequences stand within: GCCTAGCAC … GTCTTGATTCGCTTGACGCTGCTG
Sequence | fitted relative affinity
ATTTAGTATTACCTATTTCTGTGCTAG | 1.37 z-score
TTTTTTTTTTTTTTTTTTACGTGCTAG | 1.85 z-score
TCATCTTTCTCTGCTACCACTGTGCTA | 1.82 z-score
GACGGTATCCTCTTCCTGACGTGCTAG | 1.32 z-score
TTAGAACTGTGTTTCGATTAGTGCTAG | 2.22 z-score
TTAGGTATCGGCACTGGGTTAGTGCTA | -0.305 z-score
TCATATATCTGAACCGCACTGTGCTAG | 0.839 z-score
AACTGCATCCCAGGAGCTGGGTGCTAG | -0.234 z-score
TAGCTTCCATTTTCTGAACGTGTGCTA | 2.97 z-score
GACGGTTGCCTTTTCCTGACGTGCTAG | 1.32 z-score
GACGATCTCAGTCTCTAGACGTGCTAG | 0.251 z-score
GACGAACTGAGTATCGAGAGGTGCTAG | -0.327 z-score
GACGATTTTGGGACTGGAGACGTGCTA | 0.0446 z-score
TTTTTTATCAATCATTTTAGTGTGCTA | 0.64 z-score
GACGATATCAGACGGGAGACGTGCTAG | 0.0216 z-score
TCAATTTTGTTTTTCATACTGTGCTAG | 2.29 z-score
TTAGAGCTGAGTCTCGATTAGTGCTAG | -0.467 z-score
TCAGTTTTCGCTTTCTTACTGTGCTAG | 10.9 z-score
GACGGTATCGGGTTTCGGTACGTGCTA | 2.3 z-score
GACGATAACGGGTATCGAGACGTGCTA | -0.293 z-score
GGCCGTCTGAGCTCCGTAGCGTGCTAG | -0.797 z-score
TTAGGTCTCCTTTTCCATTAGTGCTAG | 1.86 z-score
TCAATGTTCCTTATTTAACTGTGCTAG | 1.16 z-score
GACCGTATCGGACTGGGGACGTGCTAG | -0.312 z-score
AAAACTAGGGCATTTAGAAAAGTGCTA | -1.63 z-score

Repeated from above (set 3):
Change | binding fitness
K36G | -1.42 natural log
L31I | -1.25 natural log
L31K | -1.24 natural log
E44L | -1.39 natural log
T37R | -1.38 natural log
S43I | -1.31 natural log
Q58R | -1.37 natural log
I28G | -1.19 natural log
